Published values of several laboratories.
Protocols differ between the studies behind these lines. Numbers after ± are the reported error.
Target: Transporter (Slc6a2, Rattus norvegicus, UniProt Q63380)

CNC(C)Cc1ccc2occc2c1 (centres unmarked)
EC50 (transporter-mediated release, substrate; rat brain synaptosomes; 30 min, together with: [3H]MPP+): 24 ± 3 nM

CNC(C)C(=O)c1ccccc1Cl (centres unmarked)
EC50 (releaser): 93 nM

Cc1ccc([C@H]2OC(N)=N[C@H]2C)cc1 (relative stereo)
EC50 (substrate release, releaser; rat brain synaptosomes; together with: [3H]MPP+ 9 nM): 11.8 ± 2 nM

NC1=NCC(c2ccccc2)O1 (centres unmarked)
EC50 (biochemical): 15.1 ± 3.5 nM

CC1NCCOC1c1ccc(F)cc1 (centres unmarked)
EC50 (concentration not given): 58 ± 7 nM

NC1Cc2cc3c(cc2C1)OCO3
EC50: 117 ± 17 nM

C[C@@H]1N=C(N)O[C@@H]1c1ccccc1 (racemic)
EC50 (substrate release, releaser, [3H]MPP+ release; rat brain synaptosomes; together with: [3H]MPP+ 9 nM): 4.8 ± 0.9 nM

CC1NCCOC1c1cccc(F)c1 (centres unmarked)
EC50 (concentration not given): 17 ± 4 nM

CNC(C)C(=O)c1ccc(C)cc1 (centres unmarked)
EC50 (substrate release, releaser; rat brain synaptosomes; together with: [3H]MPP+): 63 nM

C[C@@H]1N=C(N)O[C@@H]1c1ccc2c(c1)OCO2 (racemic)
EC50 (substrate release, releaser; rat brain synaptosomes; together with: [3H]MPP+ 9 nM): 14.8 ± 2.7 nM

CNC(C)C(=O)c1cccc(Br)c1 (centres unmarked)
EC50 (releaser): 25 nM

COc1cc2c(cc1C)CC(N)C2 (centres unmarked)
EC50: 3100 ± 728 nM

CNC(C)C(=O)c1ccccc1OC (centres unmarked)
EC50 (releaser): 339 nM

CNCCc1c[nH]c2ccc(OC)cc12
EC50 (transmitter release, releaser; rat brain synaptosomes; together with: [3H]MPP+): > 10000 nM
